Results of several laboratories.
Each numbered part is a random draw from the data of one study; scales do not carry over between parts.
Sequence of UniProt P49674 (whole entry, looked up): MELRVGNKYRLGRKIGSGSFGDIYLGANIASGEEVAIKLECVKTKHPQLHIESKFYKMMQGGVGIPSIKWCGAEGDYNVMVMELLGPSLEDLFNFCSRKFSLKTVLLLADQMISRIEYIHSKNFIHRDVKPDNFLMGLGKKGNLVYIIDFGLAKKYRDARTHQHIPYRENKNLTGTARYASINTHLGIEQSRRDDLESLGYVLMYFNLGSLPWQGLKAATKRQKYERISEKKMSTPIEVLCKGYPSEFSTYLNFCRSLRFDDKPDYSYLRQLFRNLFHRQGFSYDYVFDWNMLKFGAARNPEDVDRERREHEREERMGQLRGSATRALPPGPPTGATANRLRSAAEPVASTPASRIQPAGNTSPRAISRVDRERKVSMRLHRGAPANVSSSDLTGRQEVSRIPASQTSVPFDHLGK

Set 1 — method: protein binding microarray; form: double-stranded DNA, one strand shown; sample: in vitro; concentration: not given; relative to: not given; direction: higher = stronger binding
Target: Histone acetyltransferase KAT6A, both winged helices, GST fusion (KAT6A, Homo sapiens, UniProt Q92794, residues 1-181)
Setting: 8-mer, flanks averaged, mean of 2 arrays, mostly near background
Construct (chain): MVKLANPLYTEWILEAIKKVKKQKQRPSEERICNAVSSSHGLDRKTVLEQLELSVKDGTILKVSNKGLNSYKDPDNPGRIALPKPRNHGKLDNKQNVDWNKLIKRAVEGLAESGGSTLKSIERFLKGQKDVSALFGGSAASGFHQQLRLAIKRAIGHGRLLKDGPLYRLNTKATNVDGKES
Strand | E-score
GCATATAA | 0.0513
ATCAGCCC | -0.0657
GCGATAGA | 0.0757
AATTAAGA | -0.182
CCGAACAA | 0.0916
GAGTATGC | 0.0997
GGCACAAA | 0.0297
AGTAACTC | -0.175

Set 2 — method: protein-binding microarray; form: double-stranded DNA, one strand shown; sample: in vitro; concentration: not given; direction: higher = stronger binding
Target: Max-binding protein MNT, bHLH-zipper, MAX partner unstated (MNT, Homo sapiens, UniProt Q99583, residues 220-300)
Setting: k-mer, scored over probes, only values ≥0.25
Construct (chain): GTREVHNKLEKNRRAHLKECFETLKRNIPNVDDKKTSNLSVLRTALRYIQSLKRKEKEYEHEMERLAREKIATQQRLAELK
Strand | E-score
ACGTGGAC | 0.448
ACGAGATG | 0.274
GCGGGGAA | 0.272
AGGCATGG | 0.316
ACTCGTGC | 0.403
CGTGGAAG | 0.358
ACCCACCC | 0.364
ACGTTTAT | 0.262

Set 3 — method: protein-binding microarray; form: double-stranded DNA, one strand shown; sample: in vitro; concentration: 2540 nM top; setting: 60-bp whole probe; with: salmon DNA 0.4 mg/ml; relative to: random background probes; direction: higher = stronger binding
Target: Interferon regulatory factor 3, full length, phosphomimetic (IRF3, Homo sapiens, UniProt Q14653, residues 1-427, S386D/S396D/S398D/S402D/T404D/S405D)
Constant ends, left off below: GCCTAGCAC … GTGCTAGGTCTTGATTCGCTTGACGCTGCTG
Construct (chain): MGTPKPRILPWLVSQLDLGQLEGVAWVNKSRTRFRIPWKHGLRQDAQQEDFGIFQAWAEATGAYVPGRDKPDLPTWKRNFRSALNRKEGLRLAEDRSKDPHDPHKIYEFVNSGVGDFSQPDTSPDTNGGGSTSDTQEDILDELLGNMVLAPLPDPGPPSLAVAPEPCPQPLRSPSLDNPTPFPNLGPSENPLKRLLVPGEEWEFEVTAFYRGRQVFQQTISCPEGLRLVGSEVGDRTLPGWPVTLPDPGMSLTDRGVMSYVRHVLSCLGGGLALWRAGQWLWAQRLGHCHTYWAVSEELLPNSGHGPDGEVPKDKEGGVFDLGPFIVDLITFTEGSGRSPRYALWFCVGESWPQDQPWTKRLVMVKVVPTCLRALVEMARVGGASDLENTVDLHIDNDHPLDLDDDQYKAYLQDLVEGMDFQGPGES
Strand | fitted relative affinity [z-score]
CGTAAGCAAAAATGATTGGT | -0.116
TTAGGTTTCCTCTTCCTTTA | 4.52
GACGGTCTGCTTTTCCTGAC | 0.231
TACGGACTGCTTCTCCTGAC | -0.125
GACGGTATCGGACTGGGGCC | 1.22
TAGTATTTTTTTCCAGAGGG | 0.767
GACAGTTTCGGTTCCGGGAC | 11.2
ATCTCACTCTGTCCCTCTGT | 0.874

Other studies, line by line
Structure (SMILES) | target | test | conditions | how to read | endpoint | value
Cc1cccc(-c2[nH]c(C(C)(C)C)nc2-c2ccc3c(c2)OCO3)n1 | Casein kinase I isoform epsilon (CSNK1E, Homo sapiens, UniProt P49674) | enzyme activity, inhibitor | 0.5 µM | relative to: control | remaining activity | 71.5%

A few entries again (set 3):
Strand | fitted relative affinity [z-score]
TACGGACTGCTTCTCCTGAC | -0.125
GACGGTATCGGACTGGGGCC | 1.22
TAGTATTTTTTTCCAGAGGG | 0.767
GACAGTTTCGGTTCCGGGAC | 11.2
